Experimental data from different studies.
Every numbered part comes from another study and shows a few of its results, in no order.

Set 1 — technique: protein-binding microarray; form: double-stranded DNA, one strand shown; medium: in vitro; tested at: not given; direction: higher = stronger binding; endpoint: E-score
Target: Protein C-ets-1 (ETS1, Homo sapiens, UniProt P14921, residues 1-441, K379A, full length assumed)
Notes: k-mer, scored over probes, only values ≥0.25
Target sequence (chain): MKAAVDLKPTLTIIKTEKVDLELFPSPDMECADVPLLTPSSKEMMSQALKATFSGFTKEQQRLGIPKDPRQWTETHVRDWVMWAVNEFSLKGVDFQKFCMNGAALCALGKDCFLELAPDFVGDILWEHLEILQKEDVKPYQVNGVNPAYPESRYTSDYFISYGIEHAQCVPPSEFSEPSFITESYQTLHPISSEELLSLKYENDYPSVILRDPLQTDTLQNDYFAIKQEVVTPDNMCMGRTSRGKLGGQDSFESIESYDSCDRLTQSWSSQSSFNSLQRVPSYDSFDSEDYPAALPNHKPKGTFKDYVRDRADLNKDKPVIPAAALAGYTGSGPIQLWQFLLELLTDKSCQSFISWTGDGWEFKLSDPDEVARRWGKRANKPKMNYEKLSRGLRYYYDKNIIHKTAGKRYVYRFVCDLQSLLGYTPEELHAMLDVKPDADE
ATCCGGTA: 0.41
ACCGGAAA: 0.489
GCATACAC: 0.261
GTTGTATA: 0.31
GCCCCTCC: 0.406
CCCCGGGA: 0.377
ACATCCGG: 0.443
AGTAGTAC: 0.264
AAGCGGAA: 0.29
ATAGTACC: 0.328
CCGGTAGG: 0.253
ATTCCGGA: 0.273
ACAGGTAC: 0.254
CGTCGGAA: 0.253
ATATTACC: 0.251
ACGACGGA: 0.299
AACCGGCG: 0.414
ACGACAAA: 0.272
CCGGAGTA: 0.29

Set 2 — technique: protein-binding microarray; form: double-stranded DNA, one strand shown; medium: in vitro; tested at: 250 nM; notes: 60-bp whole probe; added: salmon DNA 0.4 mg/ml; relative to: random background probes; direction: higher = stronger binding; endpoint: log fluorescence; shared flanks, not repeated: GCCTAGCAC … GTCTTGATTCGCTTGACGCTGCTG
Target: Interferon regulatory factor 7, full length, phosphomimetic (IRF7, Homo sapiens, UniProt Q92985, residues 1-503, S101K/S471D/S472D/S475D/S476D/S477D/S483D/S484D/S487D)
Construct (chain): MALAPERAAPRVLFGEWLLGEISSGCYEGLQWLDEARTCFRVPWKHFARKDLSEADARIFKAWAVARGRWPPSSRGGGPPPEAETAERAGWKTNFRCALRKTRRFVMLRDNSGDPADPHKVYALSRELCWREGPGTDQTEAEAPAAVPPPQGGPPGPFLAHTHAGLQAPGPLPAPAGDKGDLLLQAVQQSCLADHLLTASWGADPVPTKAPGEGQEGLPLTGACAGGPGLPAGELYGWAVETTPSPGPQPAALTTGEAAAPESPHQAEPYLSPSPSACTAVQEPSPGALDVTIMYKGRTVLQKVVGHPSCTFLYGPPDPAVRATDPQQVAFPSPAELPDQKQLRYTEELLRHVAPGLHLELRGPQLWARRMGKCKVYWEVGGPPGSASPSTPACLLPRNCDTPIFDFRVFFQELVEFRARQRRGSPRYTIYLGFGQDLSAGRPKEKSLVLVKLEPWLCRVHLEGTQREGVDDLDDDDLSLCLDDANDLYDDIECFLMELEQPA
TCATTTCCCACTTTCAGACTGTGCTAG: 5.14 z-score
TTAGATATCTGGTATCGATTAGTGCTA: 0.908 z-score
GTAGGTATCGGGTTTCGGTTAGTGCTA: 6.41 z-score
GACGGTATCGACACGGGGGACGTGCTA: 0.356 z-score
GACGGACTGCGACTGCTGACGTGCTAG: -0.884 z-score
GACGGCCTGGACACTGGGGACGTGCTA: -0.687 z-score
TTAGACTTCGGGTTTCGATTAGTGCTA: 6.33 z-score
TTAGGTAGCGACACTGGGTTAGTGCTA: -0.957 z-score
TCACATTGCTTTCTCTTACTGTGCTAG: 1.05 z-score
TTAGGTCTCGTTATCCTTTAGTGCTAG: 3.73 z-score
TTAGGTATCGGACTGGCTTAGTGCTAG: -0.193 z-score
TCATGCTTCGAGATCTCACTGTGCTAG: 0.387 z-score
GACGGGCTCGGACTGGGGACGTGCTAG: -0.412 z-score
TCAACTGTCTGTTTCCTACTGTGCTAG: 0.377 z-score
GACGGTTTCGAATTTCGGGACGTGCTA: 8.99 z-score
TTGGTTCTCAGCTTGGGGCAGTGCTAG: 0.534 z-score
TTAGATTTCAGTTCTGATTAGTGCTAG: 0.935 z-score
TTAGGTATCGGTATCGGTTCGTGCTAG: 4.57 z-score
GACGGACTGGGTTTCCGGACGTGCTAG: 0.371 z-score

Set 3 — technique: RNA Bind-n-Seq; form: RNA; medium: in vitro; tested at: not given; notes: RNA with constant flanks, ends assumed; relative to: input RNA pool; direction: higher = stronger binding; endpoint: bound/input enrichment
Target: RING finger protein unkempt homolog, zinc fingers 1-6, GST-SBP tag (UNK, Homo sapiens, UniProt Q9C0B0, residues 30-357)
UniProt Q9C0B0, sequence (30-357, looked up): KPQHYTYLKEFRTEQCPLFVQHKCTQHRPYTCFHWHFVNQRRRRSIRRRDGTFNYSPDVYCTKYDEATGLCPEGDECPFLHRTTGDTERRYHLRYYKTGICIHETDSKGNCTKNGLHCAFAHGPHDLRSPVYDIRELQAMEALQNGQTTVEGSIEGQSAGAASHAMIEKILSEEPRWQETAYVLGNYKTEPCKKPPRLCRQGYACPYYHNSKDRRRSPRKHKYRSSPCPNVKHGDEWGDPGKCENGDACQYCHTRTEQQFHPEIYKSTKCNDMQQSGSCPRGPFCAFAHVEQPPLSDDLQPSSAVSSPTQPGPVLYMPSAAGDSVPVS
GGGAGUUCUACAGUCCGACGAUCGUUCUUAAAGAUGUGGGAUUGAAAAAAGAAGAUAUUGCAAUGUGGGAAGUAAAUGAAGCCUUCCGUCUGGUUGUACUAGCAAACAUUAAAAUGUUGGAGAUUGAUCCCCAAAAAGUGAAUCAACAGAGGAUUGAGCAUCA: 0.315 ratio
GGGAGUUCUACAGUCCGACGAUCAGAUACAGGCAAAGUUGAAUCUUCUGUCUUCCUGGCAAAAAUGGCAUAAAAACUGAGUUGCCCGCUCAAAUUCCUGGGUUUCAUGGAAUUAUGAUUGAGGCACUACCCUUGUAGUGGCCGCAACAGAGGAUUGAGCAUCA: 0.14 ratio
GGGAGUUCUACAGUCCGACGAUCGCUUCCCUUUUUCUCCUCACAAGGAGGUGAGGCUGGGACCUCCGGGCCAGCUUCUCACCUCACCGGGUGUACCUUUCCCGGCUCCAGCAGCCAAUGUGCUUCGGAGCCACUCUCUGCAGACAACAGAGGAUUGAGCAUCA: 0.237 ratio
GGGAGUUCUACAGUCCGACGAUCGACCUAGCAAAUAAAAGAGCAGUAGAUUUCCAGGAAGCACAGUCCUAUGCAGAUGACAACCGUUUAUUAUUCAUGGAGACAUCCGCUAAAACAUCAAUGAAUGUAAAUGAAAUAUUCAUGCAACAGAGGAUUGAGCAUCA: 0.594 ratio
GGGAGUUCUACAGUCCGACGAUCAUAACUACUCCUGCCAUGGCCGUCAGCCAUAUCAUGUUGGAAUCAUAUAAAAAGUAUAUUCCCGUGUCUUUGAUAUUACUUGGCAAAGUACAACAGCUGCCUAAAUACACCUCUCAAAUACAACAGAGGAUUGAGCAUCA: 0.197 ratio
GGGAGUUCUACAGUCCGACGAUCGGUGAGCUUCAUUUUCUCCAAAUUGGAGGAACCUGUGAUGAUAUUGAUGAAGCUGAUAUACCCGUGGAUGGAUCUCUUUCUAAAGGAAUAGAACCAUCUUCAGAAGGUUCCAAACCUUUACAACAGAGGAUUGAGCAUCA: 0.123 ratio
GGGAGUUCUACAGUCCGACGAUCAUCAGUGUCGGACGCUAACACCACUUUCGCCCCUUCCCCGCCCCACACACCCUGUCUUCCCACCGGAGCAUUACCCUCUGUUGUCCAUCUGCCAUCAGAUGUCCCCACUGAAGCAUGCAUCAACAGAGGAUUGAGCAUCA: 0.414 ratio
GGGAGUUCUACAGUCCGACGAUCGGAGGGUAUGGAGGCUAUGAUGACUAUGGAGGUUAUAAUGACGGGUAUGGUUUUGGGUCUGACCGAUUUGGAAGAGACCUAAACUACUGUUUCUCAGGAAUGUCUGAUCAUAGAUAUGGACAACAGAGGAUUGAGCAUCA: 0.46 ratio

Set 4 — technique: RNAcompete; form: RNA; medium: in vitro; tested at: 20 nM; notes: 7-mer, probes averaged, single round; relative to: mean of 7-mers; direction: higher = stronger binding; endpoint: 7-mer Z-score
Target: PABPC1L2, full length, GST fusion (mouse, UniProt A0ABA7IW68)
Construct (chain): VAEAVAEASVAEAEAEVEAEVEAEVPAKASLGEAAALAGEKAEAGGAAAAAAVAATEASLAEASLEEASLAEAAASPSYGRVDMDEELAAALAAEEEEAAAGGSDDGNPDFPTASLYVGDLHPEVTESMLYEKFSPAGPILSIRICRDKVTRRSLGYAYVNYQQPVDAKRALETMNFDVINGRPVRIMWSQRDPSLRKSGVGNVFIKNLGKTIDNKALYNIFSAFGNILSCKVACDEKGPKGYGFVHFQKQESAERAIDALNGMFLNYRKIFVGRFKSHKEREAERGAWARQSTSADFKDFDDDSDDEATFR
GCCUUGC: -0.36
UCCAACA: -0.0391
UACGUUU: -0.367
CGAGUUA: -0.199
GGUGCCU: -0.0246
CAAGCCC: -0.327
CAAAUAA: 0.867
GAUCUUC: -0.284
GGGGGAU: 0.432
GACACUG: -0.0663
UGCCACC: -0.2
ACUAGUU: -0.199
CCCCUAC: -0.394
CCCUACA: -0.262
CGGCUUU: -0.233
CAACCUU: -0.157
GCUCCUA: -0.22
ACAUGUG: 0.108
CUCGUUC: -0.545
UGUCUGC: -0.351
AGUGGGU: 0.0768
CGAAAUU: 0.0587
CUCUGUU: -0.412
AGUGCAC: -0.182
UCCUUGU: -0.382

Set 5 — technique: RNA Bind-n-Seq; form: RNA; medium: in vitro; tested at: 365 nM; relative to: no-protein control; direction: higher = stronger binding; endpoint: RBNS enrichment (R)
Target: RNA binding protein fox-1 homolog 2, RRM domain, GST-SBP tag (RBFOX2, Homo sapiens, UniProt O43251-10, residues 100-194)
Notes: natural RNA segment, single round, ends assumed
Target sequence (chain): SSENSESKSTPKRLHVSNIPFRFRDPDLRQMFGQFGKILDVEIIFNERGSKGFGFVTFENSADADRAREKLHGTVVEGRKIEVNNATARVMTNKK
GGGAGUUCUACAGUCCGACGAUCCCAGCGCCUGCCAGCCCCAGAUGAGAAGAUUGAGCUUCCACAUCAGACCCCAUACCCGCCCUUGAGUCUGUUUGCAAUUCCUGGGAUCAGGCCCACUCCAGGAGGUGGGCUGGAAUUCUCGGGUGCCAA: 0.77
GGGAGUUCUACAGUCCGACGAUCGACAGGUGAGGAUCAGCAGGGUCCACGUGUCUGCUGUUGCCAGCAAAGGGGGUCACUGGCUUUACCUGGAGCCUGGCCAGCUAGGUAGCUGGACGUAUAUAAAGGGUCCUUGGAAUUCUCGGGUGCCAA: 0.308
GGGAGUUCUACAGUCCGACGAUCGCCUUGGAUGGAGACAGACACUACUGGAGAAGGGGGCUGCCUUCCCCAGAAAGAAUACUACCUAAAUGCUGGUUCAUCAGAGAGUAACUGUGAAGAGCAUCUCAGAUAAGUGGAAUUCUCGGGUGCCAA: 0.976
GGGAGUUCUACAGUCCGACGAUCUUCUGGGACUUGAAAUCAAAUGUUUGGGAAUGGUGCCCUUGGAGGCAACCUCCCAUUUUAGAUGUUUAAAGGACCCUAUAUGUGGCAUUCCUUUCUUUAAACUAUAGGUAUGGAAUUCUCGGGUGCCAA: 0.339
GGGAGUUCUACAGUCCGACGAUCCAACGGCUGGGACUGACCCCCGCUCCCCCGACGCAUGUGGCUCCAGCCCGGCCUGGCCGCCAGGGAGCGCCACUGGCUUCCCGCCACCCGAAGGGAGCUCUGGACCCUCAUGGAAUUCUCGGGUGCCAA: 1.8
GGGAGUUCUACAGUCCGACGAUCGACAUCCUUGUCAGCCCCAGUUCCUGUGACACCUACCCCUUCAUGCUCUUUCCUCCUUCCCCCUGGGCUGACCAAAAAUGUGCUAUCUACUGUGAGCCCCUUUCCCAAGAUGGAAUUCUCGGGUGCCAA: 0.895
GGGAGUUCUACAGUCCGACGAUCGCACUUCGUUCAUUAUCAGAAAACUGGAGGAAUUUAGAGAGAGGAAAUCUACGAUUUCUAAUUACCUGGAGUCAGCCCCCACUAGUCUGAGUACUUCGGCAAAUUCACUUUGGAAUUCUCGGGUGCCAA: 0.344
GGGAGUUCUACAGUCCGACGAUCAGAAGUGCAAGCUGAUUACUCACCCCACCCUGCCUCGCCGCACCUUUCCUUUGUUUCCUUGGGUGAAUGCAGGAGCAGCAGUGGCUGCCCUUCCCACCUGGACAGUGGUGUGGAAUUCUCGGGUGCCAA: 0.955

Some of these lines once more (set 1):
CCCCGGGA: 0.377
ATAGTACC: 0.328
GCCCCTCC: 0.406
AGTAGTAC: 0.264
